Measurements gathered from unrelated publications.
Lines come from different studies, so protocols differ. Values joined by “and” are separate records of one study, mostly repeats; a detail may differ. ± gives the spread as reported.
YAP1 WW1 domain: Transcriptional coactivator YAP1, WW1 domain (YAP1, Homo sapiens, UniProt P46937)
YAP1 WW2 domain: Transcriptional coactivator YAP1, WW2 domain (YAP1, Homo sapiens, UniProt P46937)
KCNT1: Potassium channel subfamily T member 1 (KCNT1, Homo sapiens, UniProt Q5JUK3)
CFTR del508-508: Cystic fibrosis transmembrane conductance regulator (CFTR, Homo sapiens, UniProt P13569, del508-508)
T1: RNA G4, bulged parallel (Homo sapiens); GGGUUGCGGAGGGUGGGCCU
T2: DNA aptamer, truncated, engineered stem; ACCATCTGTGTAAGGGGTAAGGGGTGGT
T3: miR-21 precursor (Homo sapiens); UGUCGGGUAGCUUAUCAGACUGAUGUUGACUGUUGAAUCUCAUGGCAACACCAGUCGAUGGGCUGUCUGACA

`FC(F)=Cc1cc(C(F)(F)F)cc(C(F)(F)F)c1` has an HRP binding of at least 50% (CD209 antigen (CD209, Homo sapiens, UniProt Q9NNX6); activator, plate-based HRP; 500 µM, overnight, 4 °C or RT; relative to: DMSO control).
With `CSCC[C@H](NC(=O)[C@@H]1CCCN1C(=O)[C@@H](NC(=O)[C@H](Cc1ccc(O)cc1)NC(=O)[C@H](C)NC(=O)[C@@H]1CCCN1C(=O)[C@@H]1CCCN1C(=O)[C@@H]1CCCN1C(=O)[C@H](CO)NC(=O)[C@H](Cc1c[nH]cn1)NC(=O)CN)[C@@H](C)O)C(=O)N[C@@H](CO)C(=O)O` the ΔH was -12.3 ± 0.711 kJ/mol (YAP1 WW1 domain; binding, ITC; pH 7.0, 25 °C, WW1 domain).
For `IINFEKL`, “K1/2 of L-AMC” read ~0.19 mM and 0.2 mM (ERAP1 (Homo sapiens, UniProt Q9NZ08, F803R); substrate; peptide; pH 8.0, 27 °C, mutant F803R, added: L-AMC, peptide activator 100 µM).
For `GEVIVFGG`, “fraction of protein bound” read 3.1% (Kelch domain-containing protein 2 (UniProt Q9Y2U9); native mass spectrometry; peptide, 200 mM ammonium acetate; 20 µM Kelch domain-containing protein 2, pH 7; relative to: total Kelch domain-containing protein 2 signal).
The inhibition of `COc1cccc(-n2c(-c3ccc(Br)cc3)cs/c2=N/N=C(/C)c2ccc3c(c2)NC(=O)CO3)c1` is reported as 31.9% (Aldo-keto reductase family 1 member A1 (Bos taurus, UniProt Q3ZCJ2); enzyme activity, inhibitor, absorbance; 1 mM).
`CC(C)C[C@H](NC(=O)[C@@H](NC(=O)[C@@H](N)[C@@H](C)O)C(C)C)C(=O)N1CCC[C@H]1C(=O)N1CCC[C@H]1C(=O)N1CCC[C@H]1C(=O)N1CCC[C@H]1C(=O)N[C@@H](Cc1ccc(O)cc1)C(=O)N[C@@H](C)C(=O)N[C@@H](Cc1c[nH]cn1)C(=O)N[C@@H](CCCNC(=N)N)C(=O)N[C@@H](CC(N)=O)C(=O)O` has a ΔG of -24.5 ± 0.586 kJ/mol (YAP1 WW1 domain; binding, ITC; pH 7.0, 25 °C, WW1 domain).
For `O=S(=O)(Sc1ccccc1F)c1ccccc1F`, the inhibition was 75 ± 5% (tubulin; colchicine binding, [3H]colchicine binding; 50 µM, 10 min, 37 °C, added: [3H]colchicine 5.0 µM).
`Nc1ccc(-c2nc([C@H]3CCc4cc(-c5cc(Cl)ccc5-n5cnnn5)cc(=O)n43)c(F)[nH]2)c(F)n1` — result for “FXI activity inhibition”: 86 ± 5.3% (F11 (Homo sapiens, UniProt P03951); human, blood; oral, 250 mg once daily, fed, day 14, 24 h).
`NCCOc1cc(NC(=O)c2cc(OCc3cn(CCC(=O)O)nn3)cc(C(=O)Nc3cc(OCCN)c4ccccc4n3)n2)nc2ccccc12` has an IC50 of 0.122 µM (T1, RNA G4, bulged parallel (Homo sapiens); protein displacement, competitor, microscale thermophoresis; pH 7.5, 25 °C, KCl 150 mM, MgCl2 1 mM, added: nucleolin 80 nM).
`COc1ncc(C[n+]2csc(CCOP(=O)(O)OP(=O)(O)O)c2C)c(N)n1` gave an enzyme activity of 10 ± 0.35 µmol/min/mg E1o (2-oxoglutarate dehydrogenase complex component E1, within OGDH complex (Homo sapiens, UniProt Q02218); NADH formation; 0.20 mM, OGDH complex).
`CC(C)C[C@H](NC(=O)[C@H](C)NC(=O)[C@@H](N)[C@@H](C)O)C(=O)N1CCC[C@H]1C(=O)N1CCC[C@H]1C(=O)N1CCC[C@H]1C(=O)N1CCC[C@H]1C(=O)N[C@@H](Cc1ccc(O)cc1)C(=O)N[C@@H](CCCNC(=N)N)C(=O)N[C@@H](Cc1c[nH]cn1)C(=O)N[C@@H](CCCNC(=N)N)C(=O)N[C@@H](CC(N)=O)C(=O)O` has a TΔS of -19 ± 1.88 kJ/mol (YAP1 WW2 domain; binding, ITC; pH 7.0, 25 °C, WW2 domain).
`c1cnc2c(c1)ccc1cccnc12`: “full inhibitory concentration” 10 mM (Stromal processing peptidase, chloroplastic (SPP, Pisum sativum, UniProt Q40983); transit peptide conversion; chloroplast extract).
For `COc1ccc(-c2nc(OCC(F)(F)F)nn2-c2ccc(OC)cc2)cc1` [carbon-11 labelled], the VT deviation was at most 10% (Prostaglandin G/H synthase 1 (Macaca mulatta, UniProt F6S984); PET Logan analysis; rhesus monkey, whole brain; first 80 min data; relative to: full 120 min scan).
`CCOc1ccccc1S(=O)(=O)N1CC(c2nc(-c3cccc(Cl)c3)no2)C1` — result for activity class: “inactive” (KCNT1; Tl+ flux, inhibitor; HEK293 expressing KCNT1; 30 µM).
`CC(C)C[C@H](NC(=O)[C@@H](NC(=O)[C@@H](N)[C@@H](C)O)C(C)C)C(=O)N1CCC[C@H]1C(=O)N1CCC[C@H]1C(=O)N1CCC[C@H]1C(=O)N1CCC[C@H]1C(=O)N[C@@H](Cc1ccc(O)cc1)C(=O)N[C@@H](CCCNC(=N)N)C(=O)N[C@@H](Cc1c[nH]cn1)C(=O)N[C@@H](C)C(=O)N[C@@H](CC(N)=O)C(=O)O` gave a TΔS of -17.9 ± 1.21 kJ/mol (YAP1 WW1 domain; binding, ITC; pH 7.0, 25 °C, WW1 domain).
For `O=S(=O)(c1ccc(F)cc1)N1CC(c2nc(-c3ccsc3)no2)C1`, activity class read “inactive” (KCNT1; Tl+ flux, inhibitor; HEK293 expressing KCNT1; 30 µM).
`CC1CNCCN1S(=O)(=O)c1cccc2cnccc12.Cl.Cl` (stereo not shown) — result for “bound plasminogen fluorescence”: 323 ± 45 MFI (integrin alphaM beta2 (human); ligand binding, inhibitor, flow cytometry; human neutrophils; concentration not given, 1 h, 37 °C, integrin clustering inhibitor, added: Alexa 488-labelled plasminogen; relative to: no inhibitor, lower means less binding).
`GSRPQRLLWQTAVRHITEQRFIHGH` gave a koff1 of over 500 s⁻¹ (Calmodulin-1 (Calm1, Rattus norvegicus, UniProt P0DP29, D130A/D94A); Ca2+ dissociation, stopped-flow quin-2 fluorescence; peptide; 2 µM, pH 7.4, 22 °C, added: Ca2+-calmodulin complex).
`Nc1nc2c(ncn2[C@@H]2O[C@@H]3COP(=O)(O)O[C@H]3[C@H]2O)c(=O)[nH]1` — result for “Imax relative to cGMP”: 1 (CNGA1 (Bos taurus, UniProt Q00194); ion current, agonist, inside-out patch clamp; Xenopus oocytes; rod homomeric channel; relative to: maximum cGMP current at start).
`CO[C@@]12[C@H](COC(N)=O)C3=C(C(=O)C(C)=C(N)C3=O)N1C[C@@H]1N[C@@H]12`: binding “no binding” (T2, DNA aptamer, truncated, engineered stem; electrochemical aptamer sensor; 1 mM).
`IKPAKRMKFKTVCYLLVQLMHCRKMFKA` — result for “Ca2+ dissociation rate constant”: over 500 s⁻¹ (Calmodulin-1 (Calm1, Rattus norvegicus, UniProt P0DP29); N-lobe Ca2+ dissociation, stopped-flow with quin-2; peptide; 22 °C).
With `COc1ccc(Cl)cc1Nc1nc2c(s1)CCCc1nc(NC(=O)C(C)C)sc1-2` the Vmax was 329 µM/s (CFTR del508-508; iodide influx, corrector, YFP halide quenching; FRT cells expressing YFP-H148Q/I152L; 16 to 20 h, 37 °C, genistein 50 µM, added: forskolin 20 µM).
Under binding, `COC1=CC(c2cc3ccccc3[nH]2)=N/C1=C\c1[nH]c(C)cc1C` is recorded as “binds” (T3, miR-21 precursor (Homo sapiens); DSF; 0-20 µM, NaCl 0.25 mM).
`O=C1CCN1C(=O)OCc1ccccc1` gave a phosphopantetheine acylation of about 80% (Erythronolide synthase EryA1, module 2 ACP, holo (eryA, Saccharopolyspora erythraea, UniProt Q03131); substrate, LC-MS of tryptic digest; 10 equivalents, 1 h, pH 7, room temperature).
`NS(=O)(=O)c1ccc(N2N=C(C(F)(F)F)C[C@H]2c2ccc(F)cc2F)cc1` has an IC20 of 10.6 µM (Prostaglandin G/H synthase 1 (Canis lupus familiaris, UniProt Q8HZR1); TXB2 formation, inhibitor; dog whole blood; 1 h, 37 °C, during clotting).
For `NC(=O)NO`, “second-order rate constant” read 0.009 ± 0.002 M⁻¹ s⁻¹ (Ribonucleoside-diphosphate reductase subunit beta (nrdB, Chlamydia trachomatis serovar D, UniProt O84835); Mn(IV)/Fe(III) cofactor reduction, stopped-flow absorption; 22 °C, free beta2 subunit without alpha2).
`Cc1cc(C)c2cc(C#N)c(NCCNC(=O)c3ccccn3)nc2c1` — result for EC50: “inactive” (CFTR del508-508; ΔF508-CFTR correction, corrector; FRT; up to 25 µM, 37 °C, added: forskolin 20 µM + genistein 50 µM).
`CC(C)C[C@H](NC(=O)[C@@H](NC(=O)[C@@H](N)[C@@H](C)O)C(C)C)C(=O)N1CCC[C@H]1C(=O)N1CCC[C@H]1C(=O)N1CCC[C@H]1C(=O)N[C@@H](C)C(=O)N[C@@H](Cc1ccc(O)cc1)C(=O)N[C@@H](CCCNC(=N)N)C(=O)N[C@@H](Cc1c[nH]cn1)C(=O)N[C@@H](CCCNC(=N)N)C(=O)N[C@@H](CC(N)=O)C(=O)O` has a ΔG of -22.3 ± 0.335 kJ/mol (YAP1 WW2 domain; binding, ITC; pH 7.0, 25 °C, WW2 domain).
The Vmax of `COc1ccccc1C(=O)NCCNc1nc2cc(C)cc(C)c2cc1C#N` is reported as 114 µM/s (CFTR del508-508; CFTR correction, corrector, iodide influx rate; FRT expressing YFP-H148Q/I152L; up to 25 µM, 16-20 h, 37 °C, added: forskolin 20 µM, genistein 50 µM).
`Nc1ncnc2c1ncn2[C@@H]1O[C@H](COP(=O)(O)OP(=O)(O)OP(=O)(O)O)[C@@H](O)[C@H]1O` gave a ΔTm of 4.1 °C (HARS1 (Homo sapiens, UniProt P12081, R362H); thermal stability, DSF).
Under binding, `Ac-ALKSENYADKVEFKDAKYEASALANEFADA-NH2 (N-acetyl, C-amide)` is recorded as “no binding” (cGMP-dependent protein kinase 1, isoform alpha (PRKG1, Bos taurus, UniProt P00516); surface plasmon resonance; peptide; concentration not given, 7 min, 25 °C, immobilized peptide, 250 nM protein).

Excerpt of the above:
For `NC(=O)NO`, “second-order rate constant” read 0.009 ± 0.002 M⁻¹ s⁻¹ (Ribonucleoside-diphosphate reductase subunit beta (nrdB, Chlamydia trachomatis serovar D, UniProt O84835); Mn(IV)/Fe(III) cofactor reduction, stopped-flow absorption; 22 °C, free beta2 subunit without alpha2).
`Cc1cc(C)c2cc(C#N)c(NCCNC(=O)c3ccccn3)nc2c1` — result for EC50: “inactive” (CFTR del508-508; ΔF508-CFTR correction, corrector; FRT; up to 25 µM, 37 °C, added: forskolin 20 µM + genistein 50 µM).
`CC(C)C[C@H](NC(=O)[C@@H](NC(=O)[C@@H](N)[C@@H](C)O)C(C)C)C(=O)N1CCC[C@H]1C(=O)N1CCC[C@H]1C(=O)N1CCC[C@H]1C(=O)N[C@@H](C)C(=O)N[C@@H](Cc1ccc(O)cc1)C(=O)N[C@@H](CCCNC(=N)N)C(=O)N[C@@H](Cc1c[nH]cn1)C(=O)N[C@@H](CCCNC(=N)N)C(=O)N[C@@H](CC(N)=O)C(=O)O` has a ΔG of -22.3 ± 0.335 kJ/mol (YAP1 WW2 domain; binding, ITC; pH 7.0, 25 °C, WW2 domain).
